Published values of several laboratories.
Protocols differ between the studies behind these lines.
UCHL1: Ubiquitin carboxyl-terminal hydrolase isozyme L1 (UCHL1, Homo sapiens, UniProt P09936)
UniProt P09936, sequence (whole entry, looked up): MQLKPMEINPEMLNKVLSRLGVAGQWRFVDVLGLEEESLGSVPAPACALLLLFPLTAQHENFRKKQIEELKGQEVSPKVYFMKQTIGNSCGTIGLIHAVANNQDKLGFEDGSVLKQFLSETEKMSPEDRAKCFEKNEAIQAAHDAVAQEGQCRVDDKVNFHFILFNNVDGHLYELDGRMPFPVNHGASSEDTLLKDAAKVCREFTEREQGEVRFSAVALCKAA
UniProt Q07794, sequence (whole entry, looked up): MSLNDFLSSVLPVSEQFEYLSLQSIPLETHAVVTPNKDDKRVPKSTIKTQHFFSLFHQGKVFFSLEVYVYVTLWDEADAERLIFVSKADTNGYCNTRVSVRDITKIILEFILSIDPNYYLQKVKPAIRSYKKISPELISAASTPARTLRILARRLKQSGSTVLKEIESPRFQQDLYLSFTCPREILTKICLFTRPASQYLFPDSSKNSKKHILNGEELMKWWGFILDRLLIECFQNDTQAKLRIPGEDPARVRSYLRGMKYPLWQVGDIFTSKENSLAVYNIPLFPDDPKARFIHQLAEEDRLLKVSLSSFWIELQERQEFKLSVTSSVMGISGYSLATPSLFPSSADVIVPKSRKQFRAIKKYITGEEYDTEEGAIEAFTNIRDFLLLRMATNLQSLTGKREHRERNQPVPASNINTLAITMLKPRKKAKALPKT

Compound	target or system	test	system	conditions	how to read	endpoint	value
C#C[C@@]1(O)[C@@H](CO)O[C@@H](n2cc(I)c3c(N)ncnc32)[C@@H]1O	OVCAR-4	SRB	–	NCI-60 screen	–	TGI	> 100 µM
O=C(Nc1nnc2n3c(=S)[nH][nH]c3nc(-c3ccc(Cl)cc3)c1-2)c1ccccc1	OVCAR-4	SRB	–	10 µM, NCI60 single-dose screen	relative to: untreated	cell growth	96.8%
COc1cccc(NC(=O)C(C#N)=Cc2cccc(Cl)c2Cl)c1	UCHL1	covalent, intact protein LC-MS	–	12.5 µM	–	labelling	43.2%
CCCCN1CCN(c2ccc3[nH]c(-c4ccc5[nH]c(-c6ccc(OCC)c(OCC)c6)nc5c4)nc3c2)CC1	OVCAR-4	SRB	–	10 µM, 48 h	–	growth percent	-77.5%
O=C(Nc1nnc2n3c(Cc4ccccc4)n[nH]c3nc(-c3ccc(Cl)cc3)c1-2)c1ccccc1	OVCAR-4	SRB	–	10 µM, NCI60 single-dose screen	relative to: untreated	cell growth	96.9%
O=C(/C=C/C=C/C=C/C1CCCCC1)NC1=C[C@@](O)(/C=C/C=C/C=C/C(=O)NC2=C(O)CCC2=O)[C@@H]2O[C@@H]2C1=O	OVCAR-4	cell growth, CellTiter-Glo	–	78 h	–	GI50	16.4 µM
Cc1cc(C)n(C(=S)[S][Au][PH](CCCCCC[PH]([Au][S]C(=S)n2nc(C)cc2C)(c2ccccc2)c2ccccc2)(c2ccccc2)c2ccccc2)n1	OVCAR-4	cell growth, NCI-60 screen	–	ovarian cancer	–	log10 TGI	> -4
O=C1NC(=NCc2cccs2)S/C1=C\c1ccc2ncccc2c1	OVCAR-4	MTS	–	NCI60 panel	–	IC50	> 10 µM
O=C(Nc1nnc2[nH]c(=S)[nH]c(-c3ccc(Cl)cc3)c1-2)c1ccccc1	OVCAR-4	SRB	–	10 µM, NCI60 single-dose screen	relative to: untreated	cell growth	100%
CCCCN1CCN(c2ccc3nc(-c4ccc5nc(-c6cc(OC)ccc6OC)[nH]c5c4)[nH]c3c2)CC1	OVCAR-4	SRB	–	10 µM, 48 h	–	growth percent	92.9%
COC(=O)/C=C1\C(=O)C=C2C3CC4CC(CCC4(C)N21)C3(C)NC(C)=O (stereo not drawn)	OVCAR-4	cell growth	–	NCI screen	–	IC50	21.1 µM
COc1ccc(OC)c(-c2nc3ccc(-c4nc5ccc(N6CCN(C)CC6)cc5[nH]4)cc3[nH]2)c1	OVCAR-4	SRB	–	10 µM, 48 h	–	growth percent	113%
CN1CCC(OC(=O)c2ccc(Br)cc2)CC1.Cl	Trypanosoma cruzi	reporter translation, Renilla luciferase mRNA translation	cell-free extract	40 µM	relative to: DMSO	inhibition	-0.6%
CCOC(=O)CSc1nc(-c2ccc(Cl)cc2)c2c(NC(=O)c3ccccc3)nnc-2[nH]1	OVCAR-4	SRB	–	10 µM, NCI60 single-dose screen	relative to: untreated	cell growth	94.2%
Cn1cncc1C1=CN(c2ncnc3[nH]cnc23)CCS1	OVCAR-4	–	–	ovarian cancer	–	GI50	42.7 µM
NC(=O)Nc1ccc(C(=O)CCl)cc1	UCHL1	covalent, intact protein LC-MS	–	12.5 µM	–	labelling	19%
Cc1cc(-c2ccccc2)n(-c2nc(-c3ccc(Cl)cc3)c3c(NC(=O)c4ccccc4)nnc-3[nH]2)n1	OVCAR-4	SRB	–	10 µM, NCI60 single-dose screen	relative to: untreated	cell growth	104%
CCCN1CCN(c2ccc3[nH]c(-c4ccc5[nH]c(-c6ccc(C(F)(F)F)cc6)nc5c4)nc3c2)CC1	OVCAR-4	SRB	–	10 µM, 48 h	–	growth percent	-82.5%
O=S1(=O)CC(S(=O)(=O)Nc2ccccc2-c2cccs2)c2ccccc21 (stereo not drawn)	Histone acetyltransferase RTT109, with Vps75 (Saccharomyces cerevisiae, UniProt Q07794)	enzyme activity, inhibitor, HTS, CPM-based, dose response	–	–	–	IC50	> 125 µM
CCCCN1CCN(c2ccc3[nH]c(-c4ccc5[nH]c(-c6ccc(OCC)cc6)nc5c4)nc3c2)CC1	OVCAR-4	SRB	–	10 µM, 48 h	–	growth percent	55.2%
C#C[C@@]1(O)[C@@H](CO)O[C@@H](n2ccc3c(N)ncnc32)[C@@H]1O	OVCAR-4	SRB	–	NCI-60 screen	–	TGI	7.79 µM

For quick reference, copied from above:
Compound	target or system	test	system	conditions	how to read	endpoint	value
C#C[C@@]1(O)[C@@H](CO)O[C@@H](n2ccc3c(N)ncnc32)[C@@H]1O	OVCAR-4	SRB	–	NCI-60 screen	–	TGI	7.79 µM
O=C1NC(=NCc2cccs2)S/C1=C\c1ccc2ncccc2c1	OVCAR-4	MTS	–	NCI60 panel	–	IC50	> 10 µM
